Assay results from different studies.
Protocols differ between the studies behind these lines.
Cell line: NCI-H1975

SMILES | assay | conditions | measurement | result
COc1cc(N(C)CCN(C)C)c(NC(=O)/C=C/c2ccc3c(c2)OCO3)cc1Nc1nccc(-c2cn(C)c3ccccc23)n1 | cell growth or viability, MTT | 72 h | IC50 | 0.105 µM
O=C(NN=Cc1ccc(O)cc1)Nc1cc2c(Nc3ccc(F)c(Cl)c3)ncnc2cc1OC1CCOC1 (stereo not drawn) | cell growth or viability, MTT | 72 h | IC50 | > 100 µM
CN1CCN(c2ccc(C(=O)Nc3n[nH]c4ccc(Cc5cc(F)cc(F)c5)cc34)c(NC3CCOCC3)c2)CC1 | cell growth or viability, MTT | 72 h | IC50 | 1.55 µM
CCN1CCN(c2ccc(Nc3ncc(C)c(Nc4ccc5cn[nH]c5c4)n3)cc2OC)CC1 | annexin V-FITC/PI flow cytometry | 3 µM, 24 h | apoptotic cells | 46.9%
C=CC(=O)Nc1cc(Nc2nccc(-n3ccc4nc(OC)ccc43)n2)c(OC)cc1N(C)CCN(C)C | cell growth or viability, ATP luminescence | 72 h | IC50 | 0.001 µM
O=C(NCCN1CCOCC1)c1cc2c3ccccc3n3c(=O)ccc(n1)c23 | cell growth or viability, MTT | 72 h | IC50 | 1.3 µM
CCN1CCN(Cc2ccc(C(=O)Nc3ccc(C)c(NCc4cnc5[nH]ccc5c4OC)c3)cc2C(F)(F)F)CC1 | cell growth or viability | 48 h | GI50 | 0.89 µM
COc1cc(N(C)CCN(C)C)c(NC(=O)/C=C/c2ccc3c(c2)OCCO3)cc1Nc1nccc(-c2cn(C)c3ccccc23)n1 | cell growth or viability, MTT | 72 h | IC50 | 0.121 µM
CCOC(=O)COc1cc(Oc2ccc(S(=O)(=O)c3ccc(OC(C)C)cc3)cc2)c([N+](=O)[O-])cc1C(=O)C(Cl)Cl | cell growth or viability, MTT | 2.5 µM | inhibition | > 95%
COc1cc2ncnc(Nc3ccc(F)c(Cl)c3)c2cc1NC(=O)/C=C/CN(C)C | cell growth or viability, SRB | 72 h | IC50 | 0.3 to 0.4 µM
CC(C)Oc1ccc(S(=O)(=O)c2ccc(Oc3ccc(C(=O)C(Cl)Cl)cc3[N+](=O)[O-])cc2)cc1 | cell growth or viability, MTT | 72 h | IC50 | 0.33 to 0.88 µM
COc1cc(N(C)CCN(C)C)c(NC(=O)/C=C/c2cc(F)cc(Cl)c2)cc1Nc1nccc(-c2cn(C)c3ccccc23)n1 | cell growth or viability, MTT | 72 h | IC50 | 0.255 µM
CC[C@H](C(=O)N1CCCC[C@H]1C(=O)O[C@H](CCc1ccc(OC)c(OC)c1)c1cccc(OCC(=O)NCCOCCOCCN(C)C/C=C/C(=O)Nc2cc3c(Nc4ccc(F)c(Cl)c4)ncnc3cc2OC)c1)c1cc(OC)c(OC)c(OC)c1 | annexin V/PI flow cytometry | 1 µM, 48 h, DMSO 3.5% | apoptotic and dead cells | 42.9%
CCOC(=O)/C(=N\Nc1ccc(S(=O)(=O)Nc2ncccn2)cc1)C(=O)c1ccccc1 | cell growth or viability, MTT | 48 h | IC50 | 10.3 µM
COc1cc(N(C)CCN(C)C)c(NC(=O)/C=C/c2ccc3nc(C)ccc3c2)cc1Nc1nccc(-c2cn(C)c3ccccc23)n1 | cell growth or viability, MTT | 72 h | IC50 | 0.4 µM
